Measurements gathered from unrelated publications.
Compare with care: the assays were run in different laboratories. Numbers after ± are the reported error.
Chain of UniProt O15245 (whole entry, looked up): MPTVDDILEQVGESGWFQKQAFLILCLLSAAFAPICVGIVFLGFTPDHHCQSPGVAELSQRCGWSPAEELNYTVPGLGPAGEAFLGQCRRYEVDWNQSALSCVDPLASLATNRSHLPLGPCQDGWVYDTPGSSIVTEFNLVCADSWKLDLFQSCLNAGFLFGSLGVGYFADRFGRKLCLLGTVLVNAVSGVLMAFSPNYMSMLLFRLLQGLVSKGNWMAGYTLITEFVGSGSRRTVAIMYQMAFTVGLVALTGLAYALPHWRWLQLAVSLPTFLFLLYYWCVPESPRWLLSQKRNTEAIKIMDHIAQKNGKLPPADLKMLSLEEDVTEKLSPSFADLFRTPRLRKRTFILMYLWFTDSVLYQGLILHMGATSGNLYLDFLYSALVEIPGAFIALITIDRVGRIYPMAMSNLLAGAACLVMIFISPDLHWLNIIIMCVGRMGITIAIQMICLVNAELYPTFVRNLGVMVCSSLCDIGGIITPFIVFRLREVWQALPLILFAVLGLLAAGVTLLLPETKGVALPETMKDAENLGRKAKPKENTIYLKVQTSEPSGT
Chain of UniProt Q9NZ01 (whole entry, looked up): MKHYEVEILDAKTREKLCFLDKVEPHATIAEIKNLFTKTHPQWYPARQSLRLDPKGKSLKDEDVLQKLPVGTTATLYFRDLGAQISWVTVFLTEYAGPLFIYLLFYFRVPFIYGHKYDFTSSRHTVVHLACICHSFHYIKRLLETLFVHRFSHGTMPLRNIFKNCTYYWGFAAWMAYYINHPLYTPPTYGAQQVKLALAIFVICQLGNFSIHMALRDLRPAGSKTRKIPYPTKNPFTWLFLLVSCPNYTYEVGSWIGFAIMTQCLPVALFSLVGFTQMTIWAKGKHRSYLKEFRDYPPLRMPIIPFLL
Chain of UniProt P28223 (whole entry, looked up): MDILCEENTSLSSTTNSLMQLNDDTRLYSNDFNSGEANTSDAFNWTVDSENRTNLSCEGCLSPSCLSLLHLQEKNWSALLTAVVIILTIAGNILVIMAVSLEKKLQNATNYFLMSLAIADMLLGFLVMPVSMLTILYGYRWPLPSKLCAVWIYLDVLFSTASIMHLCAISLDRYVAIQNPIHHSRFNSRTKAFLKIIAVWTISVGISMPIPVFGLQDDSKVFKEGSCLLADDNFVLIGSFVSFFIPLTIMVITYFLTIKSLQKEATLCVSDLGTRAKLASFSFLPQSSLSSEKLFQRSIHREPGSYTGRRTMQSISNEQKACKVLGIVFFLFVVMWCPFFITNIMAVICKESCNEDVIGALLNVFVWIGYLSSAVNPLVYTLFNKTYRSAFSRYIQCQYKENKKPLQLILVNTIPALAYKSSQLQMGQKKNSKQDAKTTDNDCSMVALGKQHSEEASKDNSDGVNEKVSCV
Chain of UniProt P08581 (whole entry, looked up): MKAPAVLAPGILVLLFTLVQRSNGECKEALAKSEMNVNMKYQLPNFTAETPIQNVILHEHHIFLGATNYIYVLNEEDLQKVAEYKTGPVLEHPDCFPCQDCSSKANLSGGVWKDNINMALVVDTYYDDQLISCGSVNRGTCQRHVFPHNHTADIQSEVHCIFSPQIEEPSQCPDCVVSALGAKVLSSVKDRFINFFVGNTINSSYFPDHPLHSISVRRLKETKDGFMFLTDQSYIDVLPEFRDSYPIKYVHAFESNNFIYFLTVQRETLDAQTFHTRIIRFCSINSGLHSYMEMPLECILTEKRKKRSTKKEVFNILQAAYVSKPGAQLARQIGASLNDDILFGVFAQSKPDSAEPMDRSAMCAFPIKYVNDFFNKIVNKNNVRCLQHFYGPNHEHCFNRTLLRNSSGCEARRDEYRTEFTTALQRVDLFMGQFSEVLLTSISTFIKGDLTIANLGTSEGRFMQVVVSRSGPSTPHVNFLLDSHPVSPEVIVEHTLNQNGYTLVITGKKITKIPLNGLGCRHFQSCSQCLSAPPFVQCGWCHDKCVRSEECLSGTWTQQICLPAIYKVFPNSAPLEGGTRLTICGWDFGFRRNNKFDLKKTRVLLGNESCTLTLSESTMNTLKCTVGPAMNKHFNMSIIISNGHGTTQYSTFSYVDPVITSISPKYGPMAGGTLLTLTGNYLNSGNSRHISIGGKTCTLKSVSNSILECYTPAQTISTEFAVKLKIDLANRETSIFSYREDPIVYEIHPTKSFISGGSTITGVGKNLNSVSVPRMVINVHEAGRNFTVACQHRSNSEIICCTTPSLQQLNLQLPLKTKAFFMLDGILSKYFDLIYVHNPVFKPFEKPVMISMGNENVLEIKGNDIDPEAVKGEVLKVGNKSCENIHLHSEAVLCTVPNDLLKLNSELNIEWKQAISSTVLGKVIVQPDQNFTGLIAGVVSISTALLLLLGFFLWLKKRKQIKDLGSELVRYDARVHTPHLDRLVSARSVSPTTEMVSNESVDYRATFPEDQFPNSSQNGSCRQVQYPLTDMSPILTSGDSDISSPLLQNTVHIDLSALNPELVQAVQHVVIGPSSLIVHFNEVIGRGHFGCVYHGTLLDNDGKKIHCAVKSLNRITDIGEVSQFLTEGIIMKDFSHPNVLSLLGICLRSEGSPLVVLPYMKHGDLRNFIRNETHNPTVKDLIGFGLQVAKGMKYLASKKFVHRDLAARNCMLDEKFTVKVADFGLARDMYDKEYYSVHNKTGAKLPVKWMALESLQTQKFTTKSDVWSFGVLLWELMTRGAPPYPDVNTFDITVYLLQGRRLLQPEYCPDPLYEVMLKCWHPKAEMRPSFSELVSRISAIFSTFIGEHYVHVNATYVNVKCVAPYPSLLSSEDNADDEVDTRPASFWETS
Chain of UniProt Q8NET8 (whole entry, unmodified, looked up): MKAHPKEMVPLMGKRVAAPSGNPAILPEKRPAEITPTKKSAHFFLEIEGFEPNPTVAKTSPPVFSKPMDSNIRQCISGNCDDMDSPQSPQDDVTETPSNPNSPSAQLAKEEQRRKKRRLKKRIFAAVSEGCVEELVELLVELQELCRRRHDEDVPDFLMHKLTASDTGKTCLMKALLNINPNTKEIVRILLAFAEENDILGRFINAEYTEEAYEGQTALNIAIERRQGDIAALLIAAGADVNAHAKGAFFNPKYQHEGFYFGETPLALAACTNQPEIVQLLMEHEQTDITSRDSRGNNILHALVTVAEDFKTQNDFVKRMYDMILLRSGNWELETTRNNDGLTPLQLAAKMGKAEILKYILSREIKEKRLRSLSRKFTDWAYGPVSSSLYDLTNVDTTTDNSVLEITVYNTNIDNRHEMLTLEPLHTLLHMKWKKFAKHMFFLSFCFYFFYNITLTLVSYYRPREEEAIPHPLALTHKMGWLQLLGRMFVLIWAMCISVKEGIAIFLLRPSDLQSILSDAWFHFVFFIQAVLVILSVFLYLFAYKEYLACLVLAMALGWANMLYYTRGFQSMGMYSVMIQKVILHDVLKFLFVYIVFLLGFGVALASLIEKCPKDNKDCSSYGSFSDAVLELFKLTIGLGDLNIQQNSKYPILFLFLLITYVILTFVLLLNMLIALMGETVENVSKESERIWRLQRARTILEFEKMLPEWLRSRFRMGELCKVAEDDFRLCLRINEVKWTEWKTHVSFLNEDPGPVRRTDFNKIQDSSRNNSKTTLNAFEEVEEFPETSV
Chain of UniProt P23977 (whole entry, looked up): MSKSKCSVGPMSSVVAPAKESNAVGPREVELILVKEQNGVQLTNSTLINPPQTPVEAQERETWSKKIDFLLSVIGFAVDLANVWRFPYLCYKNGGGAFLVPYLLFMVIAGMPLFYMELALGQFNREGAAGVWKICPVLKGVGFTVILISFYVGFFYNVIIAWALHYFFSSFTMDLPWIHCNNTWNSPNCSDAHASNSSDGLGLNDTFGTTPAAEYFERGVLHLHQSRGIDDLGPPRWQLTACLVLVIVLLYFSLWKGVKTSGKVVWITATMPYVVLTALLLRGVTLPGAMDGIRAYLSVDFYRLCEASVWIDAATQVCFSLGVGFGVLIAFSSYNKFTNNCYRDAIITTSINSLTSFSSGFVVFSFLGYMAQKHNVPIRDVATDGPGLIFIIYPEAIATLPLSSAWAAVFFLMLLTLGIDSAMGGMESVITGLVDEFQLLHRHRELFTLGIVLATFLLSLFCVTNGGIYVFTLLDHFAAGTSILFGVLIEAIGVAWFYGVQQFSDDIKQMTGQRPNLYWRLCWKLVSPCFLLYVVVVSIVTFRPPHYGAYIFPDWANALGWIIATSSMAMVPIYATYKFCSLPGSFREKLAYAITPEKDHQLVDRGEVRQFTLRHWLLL
Chain of UniProt P9WIL3 (whole entry, looked up): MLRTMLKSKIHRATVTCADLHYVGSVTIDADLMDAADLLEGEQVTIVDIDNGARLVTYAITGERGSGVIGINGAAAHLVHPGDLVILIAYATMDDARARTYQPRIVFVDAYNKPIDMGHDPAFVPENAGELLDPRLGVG
Chain of UniProt P21554 (whole entry, looked up): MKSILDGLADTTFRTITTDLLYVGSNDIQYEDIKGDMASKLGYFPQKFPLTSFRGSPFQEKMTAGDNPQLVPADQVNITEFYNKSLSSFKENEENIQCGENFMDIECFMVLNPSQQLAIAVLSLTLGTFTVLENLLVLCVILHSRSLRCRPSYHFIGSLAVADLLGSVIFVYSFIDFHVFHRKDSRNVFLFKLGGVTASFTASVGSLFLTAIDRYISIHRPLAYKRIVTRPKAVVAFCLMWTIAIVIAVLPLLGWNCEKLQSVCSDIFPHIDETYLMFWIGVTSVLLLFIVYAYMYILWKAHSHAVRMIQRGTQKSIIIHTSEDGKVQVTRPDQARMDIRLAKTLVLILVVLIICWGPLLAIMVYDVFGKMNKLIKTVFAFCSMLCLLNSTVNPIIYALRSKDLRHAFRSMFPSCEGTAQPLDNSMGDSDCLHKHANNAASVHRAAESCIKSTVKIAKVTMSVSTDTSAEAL

| SMILES | tested on | assay | system | conditions | how to read | endpoint | result |
| --- | --- | --- | --- | --- | --- | --- | --- |
| CC[C@@H](NC(=O)CNC(=O)[C@@H](Cc1ccccc1)NC(=O)CNC(=O)[C@H](N)CCC(N)=O)C(=O)N[C@H](CC(=O)O)C(=O)N[C@H](CCC(=O)O)C(=O)N[C@H](CCSC)C(=O)N[C@H](CC(C)C)C(=O)N[C@H](CCC(N)=O)C(=O)NCC(=O)N[C@H](Cc1ccccc1)C(=O)N[C@H](C)C(=O)N[C@@H](C(=O)N[C@H](C)C(=O)N[C@@H](C(=O)N[C@H](CCCCN)C(=O)N[C@H](CCSC)C(=O)NCC(=O)N[C@H](C)C(=O)N[C@H](Cc1ccc(O)cc1)C(=O)N[C@H](CCCCN)C(=O)N[C@H](C)C(=O)N[C@H](Cc1c[nH]c2ccccc12)C(=O)O)C(C)C)C(C)C | hemagglutinin influenza A/California/07/2009 H1N1 | – | – | – | – | Ki | 8 µM |
| CNC(C)Cc1ccc2c(c1)OCO2 (stereo not shown) | SLC22A1 (Homo sapiens, UniProt O15245) | – | – | – | – | IC50 | 2.8 ± 2.1 µM |
| CC(C)(CCCCCCN=C=S)c1cc(O)c2c(c1)OC(C)(C)[C@@H]1CC[C@@H](CO)C[C@@H]21 | CNR1 (Homo sapiens, UniProt P21554) | forskolin-stimulated cAMP accumulation, agonist, HTRF | CHO-K1 | – | – | EC50 | 0.002 µM |
| C[C@H]1CN(c2n[nH]c3nc(N[C@H]4CC[C@H](NS(=O)(=O)CCC(F)(F)F)CC4)ncc23)CCO1 | Very-long-chain enoyl-CoA reductase (Homo sapiens, UniProt Q9NZ01) | Kinobeads competition, refers to: GPSN2 | – | 20 µM, unit not given | reference: vehicle | remaining binding | 1.09 |
| CO[C@H]1C[C@@H]2CC[C@@H](C)[C@@](O)(O2)C(=O)C(=O)N2CCCC[C@H]2C(=O)O[C@H]([C@H](C)C[C@@H]2CC[C@@H](OC(=O)NCCOCCOCCOCCOCCOCCOCCOCCOCCC(=O)N3CCc4cc(Cn5nc(-c6ccc7oc(N)nc7c6)c6c(N)ncnc65)ccc4C3)[C@H](OC)C2)C[C@@H](O)[C@H](C)/C=C(\C)[C@@H](O)[C@@H](OC)C(=O)[C@H](C)C[C@H](C)/C=C/C=C/C=C/1C | – | – | patients with advanced solid tumours | intravenous, 16 mg weekly, any grade | – | vomiting incidence | 25% |
| C#CC[C@@H](N)C(=O)N[C@H](CO)C(=O)N[C@@H](C(=O)N[C@H](CO)C(=O)N[C@H](CCC(=O)O)C(=O)N[C@@H](C(=O)N[C@H](CCC(N)=O)C(=O)N[C@H](CC(C)C)C(=O)N[C@H](CCSC)C(=O)N[C@H](Cc1c[nH]cn1)C(=O)N[C@H](CC(N)=O)C(=O)N[C@H](CC(C)C)C(=O)NCC(=O)N[C@H](CCCCN)C(=O)N[C@H](Cc1c[nH]cn1)C(=O)N[C@H](CC(C)C)C(=O)NCC(=O)N[C@H](CO)C(=O)N[C@H](CCSC)C(=O)N[C@H](CCC(=O)O)C(=O)N[C@H](CCCNC(=N)N)C(=O)N[C@@H](C(=O)N[C@H](Cc1ccc(O)cc1)C(=O)N[C@H](Cc1ccccc1)C(=O)N[C@H](CC(C)C)C(=O)N[C@H](CCCNC(=N)N)C(=O)N[C@H](Cc1ccccc1)C(=O)N[C@H](CCCCN)C(=O)N[C@H](CC(C)C)C(=O)N[C@H](CCC(N)=O)C(=O)N[C@H](CC(C)C)C(=O)N[C@@H](C(N)=O)[C@H](C)CC)C(C)C)[C@H](C)CC)C(C)C | hemagglutinin influenza A/California/07/2009 H1N1 | – | – | – | – | Ki | 28 µM |
| CCCC(NC)C(=O)c1ccc2c(c1)OCO2 (racemic) | Slc6a3 (Rattus norvegicus, UniProt P23977) | dopamine uptake, inhibitor | rat brain synaptosomes | together with: [3H]dopamine | – | IC50 | ~0.12 µM |
| O=C(O)c1nccnc1NC(=O)c1cccc2ccccc12 | Aspartate 1-decarboxylase (panD, Mycobacterium tuberculosis, UniProt P9WIL3) | binding | – | – | – | Kd | 20 ± 0.5 µM |
| COc1cc(CCNCc2ccccc2OC)c(OC)cc1Br | HTR2A (Homo sapiens, UniProt P28223) | agonist | – | – | – | EC50 | 0.00019 µM |
| Cn1cc2cc(C(F)(F)c3nnc4ccc(-c5cnn(C6CC6)c5)nn34)c(F)cc2n1 | MET (Homo sapiens, UniProt P08581) | – | – | – | – | IC50 | 0.0022 µM |
| CCCc1cc(O)c2c(c1)OC(C)(C)[C@@H]1CCC(C)=C[C@@H]21 | TRPV3 (Homo sapiens, UniProt Q8NET8, S444A) | calcium uptake, agonist | HEK293S | mutant S444A, site 2 | – | EC50 | 2.43 ± 0.14 µM |
| CC[C@H](C)[C@@H]1NC(=O)[C@@H]2CCCN2C(=O)[C@H](CC(C)C)NC(=O)[C@H](CC(C)C)NC(=O)CNC(=O)[C@@H](NC(=O)[C@@H](NC(=O)[C@H](CC(=O)O)NC(=O)CNC(=O)[C@@H](NC(=O)[C@H](C)NC(=O)CNC(=O)[C@H](CCCCN)NC(=O)[C@H](CC(C)C)NC(=O)[C@H](CC(C)C)NC(=O)[C@H](CCCCN)NC(=O)CNC(=O)[C@@H](NC(=O)[C@@H](N)CC(C)C)C(C)C)C(C)C)C(C)C)CSSC[C@@H](C(=O)O)NC1=O | – | RNA-seq, refers to: Tpm3-rs7 mRNA | mouse traumatic brain injury, frontal cortex and hippocampus | dose not given | reference: TBI plus compound vs TBI | log2 fold change | 1.54 |
| COc1cc(Nc2ncc(F)c(Nc3ccc4c(n3)NC(=O)C(C)(C)O4)n2)cc(OC)c1OC | ACAT | enzyme activity, inhibitor | liver | – | – | IC50 | > 10 µM |

A few entries again:
| SMILES | tested on | assay | system | conditions | how to read | endpoint | result |
| --- | --- | --- | --- | --- | --- | --- | --- |
| CC[C@@H](NC(=O)CNC(=O)[C@@H](Cc1ccccc1)NC(=O)CNC(=O)[C@H](N)CCC(N)=O)C(=O)N[C@H](CC(=O)O)C(=O)N[C@H](CCC(=O)O)C(=O)N[C@H](CCSC)C(=O)N[C@H](CC(C)C)C(=O)N[C@H](CCC(N)=O)C(=O)NCC(=O)N[C@H](Cc1ccccc1)C(=O)N[C@H](C)C(=O)N[C@@H](C(=O)N[C@H](C)C(=O)N[C@@H](C(=O)N[C@H](CCCCN)C(=O)N[C@H](CCSC)C(=O)NCC(=O)N[C@H](C)C(=O)N[C@H](Cc1ccc(O)cc1)C(=O)N[C@H](CCCCN)C(=O)N[C@H](C)C(=O)N[C@H](Cc1c[nH]c2ccccc12)C(=O)O)C(C)C)C(C)C | hemagglutinin influenza A/California/07/2009 H1N1 | – | – | – | – | Ki | 8 µM |
